Results collected from several papers.
Numbered parts are unrelated; each lists some results of a single study. Changes are numbered by the printed parent chain.

Block 1 — method: universal PBM; molecule type: double-stranded DNA, one strand shown; sample: in vitro; tested at: 600 nM; reading: higher = stronger binding
Target: Sal-like protein 4, full length isoform A (SALL4, Homo sapiens, UniProt Q9UJQ4, residues 1-1053)
Chain of UniProt Q9UJQ4 (whole entry, looked up): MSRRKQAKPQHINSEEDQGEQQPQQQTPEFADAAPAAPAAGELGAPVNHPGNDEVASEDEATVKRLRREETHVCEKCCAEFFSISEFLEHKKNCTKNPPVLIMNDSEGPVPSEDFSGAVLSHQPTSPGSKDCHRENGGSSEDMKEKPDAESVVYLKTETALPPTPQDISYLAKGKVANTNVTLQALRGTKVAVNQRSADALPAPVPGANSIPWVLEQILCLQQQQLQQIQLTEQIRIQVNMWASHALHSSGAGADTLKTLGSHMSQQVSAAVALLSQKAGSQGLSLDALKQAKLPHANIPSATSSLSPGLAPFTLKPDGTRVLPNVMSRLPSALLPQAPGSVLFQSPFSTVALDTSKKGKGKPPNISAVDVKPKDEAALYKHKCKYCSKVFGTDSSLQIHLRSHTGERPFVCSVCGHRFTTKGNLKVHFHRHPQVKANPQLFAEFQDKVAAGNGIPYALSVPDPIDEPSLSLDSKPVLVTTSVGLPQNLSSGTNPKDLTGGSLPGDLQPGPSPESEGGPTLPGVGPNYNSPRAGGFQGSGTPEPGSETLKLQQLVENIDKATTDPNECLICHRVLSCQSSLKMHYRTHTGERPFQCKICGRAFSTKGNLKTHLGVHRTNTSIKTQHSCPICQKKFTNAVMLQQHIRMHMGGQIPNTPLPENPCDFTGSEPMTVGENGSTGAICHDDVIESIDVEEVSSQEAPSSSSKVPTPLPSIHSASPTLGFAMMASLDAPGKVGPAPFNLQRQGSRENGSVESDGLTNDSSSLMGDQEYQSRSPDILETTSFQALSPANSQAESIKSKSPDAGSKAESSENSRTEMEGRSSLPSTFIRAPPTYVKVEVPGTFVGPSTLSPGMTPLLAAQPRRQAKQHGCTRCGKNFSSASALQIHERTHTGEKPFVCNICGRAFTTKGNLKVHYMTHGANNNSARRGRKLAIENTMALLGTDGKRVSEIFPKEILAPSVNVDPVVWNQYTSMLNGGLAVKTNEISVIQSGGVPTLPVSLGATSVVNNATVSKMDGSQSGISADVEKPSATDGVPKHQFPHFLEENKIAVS
Setting: 8-mer, flanks averaged, mean of replicates
| Oligonucleotide | E-score |
| --- | --- |
| CTGCGGAC | -0.291 |
| CCAACCGG | -0.346 |
| AGCGTCAC | -0.26 |
| AATTGACC | 0.0503 |
| CTGTTTGA | 0.126 |
| GGCACGTA | -0.0828 |

Block 2 — method: RNA Bind-n-Seq; molecule type: RNA; sample: in vitro; tested at: not given; baseline: input RNA pool; reading: higher = stronger binding
Target: RING finger protein unkempt homolog, zinc fingers 1-6, GST-SBP tag (UNK, Homo sapiens, UniProt Q9C0B0, residues 30-357)
Setting: RNA with constant flanks, human-mouse chimeric sites, ends assumed
Target sequence (chain): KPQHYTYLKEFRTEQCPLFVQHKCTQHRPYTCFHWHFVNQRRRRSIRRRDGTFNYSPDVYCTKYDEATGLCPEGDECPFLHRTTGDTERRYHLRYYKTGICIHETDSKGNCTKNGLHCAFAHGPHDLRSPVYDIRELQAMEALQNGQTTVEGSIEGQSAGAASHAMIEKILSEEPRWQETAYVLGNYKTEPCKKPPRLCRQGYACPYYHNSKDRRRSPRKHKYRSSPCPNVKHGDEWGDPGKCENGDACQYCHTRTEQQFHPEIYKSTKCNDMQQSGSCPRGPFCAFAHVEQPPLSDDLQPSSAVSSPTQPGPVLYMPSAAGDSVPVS
| Oligonucleotide | bound/input enrichment |
| --- | --- |
| GGGAGUUCUACAGUCCGACGAUCGCGGCAGAAUCAUGGAGGACAUAAUGCAGCUCCCCAAGUCGCGCAUCAACGCCAGCAUGCUAGCUCAGUAUAUCGACCGGCCCGUGUGCUUCGUGGGGAAGCUGGAAAAGAUUCAUCCCACAACAGAGGAUUGAGCAUCA | 0.0919 ratio |
| GGGAGUUCUACAGUCCGACGAUCGGCCUGGGACCGUCCUGGGCUAGUACAAAUAGCGGCAUGGAGGCUCAGAGAGGAAAGUUUGUUAGUGGAGGCAGUGGAGAGGUCGUCCAUGUACGGUCCUUUACUCGAUAGAUGUGUUCUCAACAGAGGAUUGAGCAUCA | 0.568 ratio |
| GGGAGUUCUACAGUCCGACGAUCUCUUUAAAUGCACUACAACCUUUUCUGACAGUGCUUUCCCUCCCAUAGAUCCACGUUCAAGCUCAAAGAGCAAAGGCUUUGCACGGAGCUCAAACAUCUGAUGAAGAUUUUUGAGACAGACAACAGAGGAUUGAGCAUCA | 0.493 ratio |

Block 3 — target: CCNA1, cyclin fold, Cln2 fusion (human); method: yeast growth competition, sequencing; sample: yeast; setting: weak parent motif; baseline: not given; reading: higher = stronger binding
Starting sequence: ASZ1 docking peptide (human); GFGFLLFICKLTF
| Substitution | normalised enrichment score |
| --- | --- |
| F13A | 0.00423 |
| F7A | -0.737 |
| I8A | -0.617 |
| F2A | -0.0335 |
| F4A | -0.3 |
| L6A | -0.145 |

Other studies, line by line
| Substance | target | test | test system | setting | scale | quantity | result |
| --- | --- | --- | --- | --- | --- | --- | --- |
| PhoQ, residues 284 288 289 292 302 303 SLSVQF | PhoP, residues 12 14 15 18 19 SPWRL (Escherichia coli, UniProt P23836) | Sort-seq, measured: YFP reporter | E. coli | PhoQ-PhoP variant library, added: 10 µM Mg2+ | baseline: high Mg2+ state, higher = stronger signaling | fold induction | 7.88 |

For quick reference, copied from above (block 1):
| Oligonucleotide | E-score |
| --- | --- |
| AATTGACC | 0.0503 |
